# Measured values pooled from the literature.
# Every numbered part comes from another study and shows a few of its results, in no order.
# Chain of UniProt Q15208 (whole entry, looked up): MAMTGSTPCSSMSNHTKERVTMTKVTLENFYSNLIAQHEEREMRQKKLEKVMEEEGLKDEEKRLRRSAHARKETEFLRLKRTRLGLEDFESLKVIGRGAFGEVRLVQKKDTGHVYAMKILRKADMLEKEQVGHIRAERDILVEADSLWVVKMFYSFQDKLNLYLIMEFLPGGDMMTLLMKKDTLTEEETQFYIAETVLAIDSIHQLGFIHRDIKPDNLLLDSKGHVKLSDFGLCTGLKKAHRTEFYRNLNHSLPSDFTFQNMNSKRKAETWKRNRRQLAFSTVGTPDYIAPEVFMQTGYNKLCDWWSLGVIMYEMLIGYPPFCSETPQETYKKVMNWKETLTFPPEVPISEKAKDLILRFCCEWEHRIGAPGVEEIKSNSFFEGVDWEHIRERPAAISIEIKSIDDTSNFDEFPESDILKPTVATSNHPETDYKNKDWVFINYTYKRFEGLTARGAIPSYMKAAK
# Chain of UniProt Q04759 (whole entry, looked up): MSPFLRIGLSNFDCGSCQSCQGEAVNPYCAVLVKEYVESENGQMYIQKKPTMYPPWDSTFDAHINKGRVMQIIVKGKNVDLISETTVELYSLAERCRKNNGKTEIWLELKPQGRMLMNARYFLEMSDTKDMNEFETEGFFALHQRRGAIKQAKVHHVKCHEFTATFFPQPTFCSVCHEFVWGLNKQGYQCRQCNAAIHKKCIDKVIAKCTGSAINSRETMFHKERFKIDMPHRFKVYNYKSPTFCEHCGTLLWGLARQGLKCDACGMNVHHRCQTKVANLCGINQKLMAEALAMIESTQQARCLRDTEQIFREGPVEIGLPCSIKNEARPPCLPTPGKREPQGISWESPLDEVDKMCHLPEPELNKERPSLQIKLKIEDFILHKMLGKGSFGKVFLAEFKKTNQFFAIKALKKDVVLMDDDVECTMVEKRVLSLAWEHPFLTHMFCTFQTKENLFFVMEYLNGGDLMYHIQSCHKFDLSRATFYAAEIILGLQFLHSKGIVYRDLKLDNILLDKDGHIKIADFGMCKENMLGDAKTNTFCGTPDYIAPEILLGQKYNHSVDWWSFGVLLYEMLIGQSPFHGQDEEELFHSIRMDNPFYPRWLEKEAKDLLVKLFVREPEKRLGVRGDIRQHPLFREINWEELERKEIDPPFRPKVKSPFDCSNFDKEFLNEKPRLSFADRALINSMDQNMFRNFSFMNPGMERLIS
# Chain of UniProt P49760 (whole entry, looked up): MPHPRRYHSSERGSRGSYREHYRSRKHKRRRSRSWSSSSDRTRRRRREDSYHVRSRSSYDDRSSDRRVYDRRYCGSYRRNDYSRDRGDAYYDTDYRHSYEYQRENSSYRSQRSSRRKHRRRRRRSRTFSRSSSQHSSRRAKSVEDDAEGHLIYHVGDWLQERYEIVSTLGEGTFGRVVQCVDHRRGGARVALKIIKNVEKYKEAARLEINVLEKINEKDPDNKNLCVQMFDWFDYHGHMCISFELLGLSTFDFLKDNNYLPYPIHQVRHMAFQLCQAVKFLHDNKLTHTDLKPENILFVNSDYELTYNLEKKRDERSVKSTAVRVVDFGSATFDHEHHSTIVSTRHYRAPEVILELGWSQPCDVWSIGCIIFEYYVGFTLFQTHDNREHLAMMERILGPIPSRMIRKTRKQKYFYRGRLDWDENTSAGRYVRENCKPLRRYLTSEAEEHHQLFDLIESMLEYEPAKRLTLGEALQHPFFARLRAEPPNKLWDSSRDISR
# Chain of UniProt Q96RR4 (whole entry, looked up): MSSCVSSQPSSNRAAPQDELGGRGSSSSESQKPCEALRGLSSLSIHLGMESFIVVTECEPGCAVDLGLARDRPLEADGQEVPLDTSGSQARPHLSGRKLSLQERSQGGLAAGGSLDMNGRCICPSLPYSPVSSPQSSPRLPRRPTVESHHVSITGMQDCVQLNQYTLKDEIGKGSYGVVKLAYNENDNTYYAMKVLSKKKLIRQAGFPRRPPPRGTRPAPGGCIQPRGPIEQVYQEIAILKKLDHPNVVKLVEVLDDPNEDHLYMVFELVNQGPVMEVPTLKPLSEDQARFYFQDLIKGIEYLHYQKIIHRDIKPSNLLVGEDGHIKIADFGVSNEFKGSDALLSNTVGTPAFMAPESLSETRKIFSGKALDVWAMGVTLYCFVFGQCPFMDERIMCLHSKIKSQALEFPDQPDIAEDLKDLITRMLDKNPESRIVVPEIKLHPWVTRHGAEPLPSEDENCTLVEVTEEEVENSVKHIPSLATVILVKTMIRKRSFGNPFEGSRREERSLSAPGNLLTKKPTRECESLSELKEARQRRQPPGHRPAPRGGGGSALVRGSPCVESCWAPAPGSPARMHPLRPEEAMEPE

# Study 1
# Species: mouse
# Sample: microsomes or S9
# Concentration: 2 µM
# Time: 0.5 h
Compound,remaining compound
Cc1noc(/C=C/c2ccccc2F)c1S(=O)(=O)N1CCC(C(=O)Nc2ccc(S(N)(=O)=O)cc2)CC1,63.8%
Cc1c(Br)cc(C(=O)N(C)Cc2cscn2)c(=O)n1C,85.4%
Clc1ccc(-c2ccc(CNCCOc3ccccn3)o2)c(Cl)c1,< 1%
CCOC(=O)c1c(N)sc2c1CCC(CC)C2 (stereo not drawn),63.2%
COCc1cccc(C(=O)OCC(=O)c2ccc(CCCNC(C)=O)cc2)c1,1.11%
CCOC(=O)c1cc2n(c1)CCCc1c(N)n[nH]c1-2,35.1%
CC(C)CCC1CCN(C(=O)C2CC(O)CN2)CC1 (stereo not drawn),86.9%
C[C@H](O)CNS(=O)(=O)C1CCc2cc(Br)ccc2C1 (stereo partly drawn),76%

# Study 2
# Target: MAP kinase-activated protein kinase 2 (MAPKAPK2, Homo sapiens, UniProt P49137)
# Chain of UniProt P49137 (whole entry, looked up): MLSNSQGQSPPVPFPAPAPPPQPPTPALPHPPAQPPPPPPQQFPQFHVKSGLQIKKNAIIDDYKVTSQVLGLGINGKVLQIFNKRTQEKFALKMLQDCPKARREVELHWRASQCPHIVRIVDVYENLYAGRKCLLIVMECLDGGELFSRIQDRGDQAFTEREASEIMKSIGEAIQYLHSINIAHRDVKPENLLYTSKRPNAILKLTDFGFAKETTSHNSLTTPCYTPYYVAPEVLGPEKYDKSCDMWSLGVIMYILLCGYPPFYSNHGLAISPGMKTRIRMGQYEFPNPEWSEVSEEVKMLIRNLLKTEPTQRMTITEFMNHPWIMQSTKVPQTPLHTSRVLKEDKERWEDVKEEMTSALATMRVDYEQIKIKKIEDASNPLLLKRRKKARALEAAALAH
# Effect on: enzyme activity
# Action: inhibitor
# Concentration: 0.5 µM
# Baseline: control
SMILES,remaining activity [%]
O=C(Nc1cccc(Nc2cc(Nc3cccc(C(F)(F)F)c3)ncn2)c1)C1CC1,104
Nc1ccc2ncnc(NCCc3ccc(Oc4ccccc4)cc3)c2c1,108
O=C1NC(=O)C(c2cn(CCCn3ccnc3)c3ccccc23)=C1Nc1ccccc1,102
CN(C)c1ccc(C=C2C(=O)Nc3ccccc32)cc1,106
Cc1ccc(Nc2nccc(N(C)c3ccc4c(C)n(C)nc4c3)n2)cc1S(N)(=O)=O,99.6
Oc1ccc(-c2nc(-c3ccncc3)c(-c3ccc(F)cc3)[nH]2)cc1,99.2
Cc1nc(-c2ccccc2)c(-c2ccncc2)o1,102
O=S(=O)(c1cccc2cnccc12)N1CCCNCC1,101
C#Cc1cccc(Nc2ncnc3cc(OCCOC)c(OCCOC)cc23)c1,96.2
OCC(O)CCON=C1C(c2c(O)[nH]c3ccccc23)=Nc2ccccc21 (stereo not drawn),98.4
O=C1NC(=O)C(c2cn(CCCO)c3ncccc23)=C1c1cnccn1,91
COc1ccc(C(=O)Nc2sc3c(c2C(N)=O)CCCC3)cc1OC,104
Cn1sc(=O)n(Cc2ccccc2)c1=O,102
Cn1c2ccccc2c2c3c(c4c5ccccc5n(CCC#N)c4c21)CNC3=O,109
COc1cc2ncnc(Nc3ccc(F)c(Cl)c3)c2cc1OCCCN1CCOCC1,97.5

# Study 3
# SMILES: C[C@@H]1CN(c2cc(-c3n[nH]c4ccc(OC5(C)CC5)cc34)ncn2)C[C@H](C)O1
# Effect on: cell-free assay
# Method: competition with immobilised ligand
# Concentration: 0.1 µM
target,remaining binding
"STK38 (Homo sapiens, UniProt Q15208)",87%
"CLK2 (Homo sapiens, UniProt P49760)",85%
"ERBB2 (Homo sapiens, UniProt P04626)",77%
"PRKCQ (Homo sapiens, UniProt Q04759)",74%
"Tyrosine-protein kinase ABL1, non-phosphorylated (ABL1, Homo sapiens, UniProt P00519, T315I)",72%
"CAMKK2 (Homo sapiens, UniProt Q96RR4)",100%

# Study 4
# Cell line: A-375
# Concentration: 100 µM
# Time: 18 h
Compound,viability
CCOc1ccccc1OCCN[C@H](C)Cc1ccc(OC)c(S(N)(=O)=O)c1,83.9%
CN1C(C)(C)CCCC1(C)C,84.6%
CC[C@H]1OC(=O)[C@@](C)(F)C(=O)[C@H](C)[C@@H](O[C@@H]2O[C@H](C)C[C@H](N(C)C)[C@H]2O)[C@](C)(OC)C[C@@H](C)C(=O)[C@H](C)[C@H]2N(CCCCn3cc(-c4cccc(N)c4)nn3)C(=O)O[C@]12C,11.6%
O=C(N[C@H](CO)[C@H](O)c1ccc([N+](=O)[O-])cc1)C(Cl)Cl,101%
CCCCCCCCN[C@@H](C)[C@H](O)c1ccc(SC(C)C)cc1 (racemic),7.66%
CCCSc1nc(N[C@@H]2C[C@H]2c2ccc(F)c(F)c2)c2nnn([C@@H]3C[C@H](OCCO)[C@@H](O)[C@H]3O)c2n1,8.55%
CCCc1cc(=O)[nH]c(=S)[nH]1,97.2%

# For quick reference, copied from above (study 4):
Compound,viability
CCCSc1nc(N[C@@H]2C[C@H]2c2ccc(F)c(F)c2)c2nnn([C@@H]3C[C@H](OCCO)[C@@H](O)[C@H]3O)c2n1,8.55%
CCCCCCCCN[C@@H](C)[C@H](O)c1ccc(SC(C)C)cc1 (racemic),7.66%
CCOc1ccccc1OCCN[C@H](C)Cc1ccc(OC)c(S(N)(=O)=O)c1,83.9%
CC[C@H]1OC(=O)[C@@](C)(F)C(=O)[C@H](C)[C@@H](O[C@@H]2O[C@H](C)C[C@H](N(C)C)[C@H]2O)[C@](C)(OC)C[C@@H](C)C(=O)[C@H](C)[C@H]2N(CCCCn3cc(-c4cccc(N)c4)nn3)C(=O)O[C@]12C,11.6%
CN1C(C)(C)CCCC1(C)C,84.6%
